# Results from different studies.
# Each numbered part is a random draw from the data of one study; scales do not carry over between parts.

# Set 1
# Target: Histone acetyltransferase KAT6A, winged helix 1, GST fusion (KAT6A, Homo sapiens, UniProt Q92794, residues 1-85)
# Technique: protein binding microarray
# Molecule type: double-stranded DNA, one strand shown
# Medium: in vitro
# Tested at: not given
# Setting: 8-mer, flanks averaged, mean of 2 arrays, mostly near background
# Reference: not given
# Reading: higher = stronger binding
# Target sequence (chain): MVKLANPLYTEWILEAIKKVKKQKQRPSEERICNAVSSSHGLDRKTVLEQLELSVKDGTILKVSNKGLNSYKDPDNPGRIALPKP
Sequence,E-score
GCTTGCAC,0.0288
CCTGCGGC,0.263
CGGCGTGC,0.367
CGAGTAAA,-0.053
AGATCCGC,0.242
CAATGGAG,-0.101
AGCCTGGG,-0.187
ACGCCTCC,0.125

# Set 2
# Organism: SARS-CoV-2
# Effect on: cytopathic effect
# Cell line: Vero E6
# Tested at: 10 µM
SMILES,inhibition [%]
COC(=O)[C@H](CCSC)NC(=O)c1ccc(NC[C@@H](N)CS)cc1-c1ccccc1,-7.1
CN1CCN2c3ccccc3Cc3ccccc3C2C1 (stereo not drawn),-2.4
CC(C)Nc1cccnc1N1CCN(C(=O)c2cc3cc(NS(C)(=O)=O)ccc3[nH]2)CC1.CS(=O)(=O)O,2.9
O=C(NCCCNc1nc(Nc2cccc(NC(=O)N3CCCC3)c2)ncc1I)c1cccs1,-5.2
C=C1C(=O)[C@]23[C@H](O)[C@H]1CC[C@@H]2[C@@]12CO[C@]3(O)C[C@@H]1C(C)(C)CC[C@@H]2O,-30.2

# Set 3
# Target: Ras GTPase-activating protein-binding protein 1, C-terminal RGG region (G3BP1, Homo sapiens, UniProt Q13283)
# Chain of UniProt Q13283 (whole entry, looked up): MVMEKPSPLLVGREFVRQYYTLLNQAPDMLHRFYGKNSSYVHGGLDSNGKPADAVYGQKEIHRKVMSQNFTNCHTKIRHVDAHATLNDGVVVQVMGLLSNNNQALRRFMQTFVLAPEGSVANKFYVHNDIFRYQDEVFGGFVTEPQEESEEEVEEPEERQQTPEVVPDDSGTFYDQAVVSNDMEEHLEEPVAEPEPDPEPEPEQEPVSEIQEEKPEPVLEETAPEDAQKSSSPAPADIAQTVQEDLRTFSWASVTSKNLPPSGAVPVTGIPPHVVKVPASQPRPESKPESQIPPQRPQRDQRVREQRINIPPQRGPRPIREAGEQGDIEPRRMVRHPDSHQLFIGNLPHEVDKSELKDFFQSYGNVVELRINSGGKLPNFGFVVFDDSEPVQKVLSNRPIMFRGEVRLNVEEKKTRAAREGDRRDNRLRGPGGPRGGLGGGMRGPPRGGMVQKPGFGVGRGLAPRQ
# Technique: RNA Bind-n-Seq
# Molecule type: RNA
# Medium: in vitro
# Tested at: 1 µM
# Setting: whole 134-nt RNA, ends assumed
# Together with: 150 mM KCl
# Reference: input library
# Reading: higher = stronger binding
# Constant ends, left off below: GGGAGUUCUACAGUCCGACGAUC … UGGAAUUCUCGGGUGUCAAGG
Sequence,log2 enrichment
GCAGGAAGUAAAAACAAAUGGAAAUGCUUCGGAUAGUGGCAGGGGUGGGGGUUGCUAAGGAAAGGGUGGAAUGGGAGUGGGUAAAGAGUU,1.77
CCUGUGCUACACAUCGUAUGUACCGAAUCGGCCCCCCCGGGCCCCCCCGGGCCCCCCCGGGAAAGUAUUAUGUUACGCCGUUCGGAUCUG,-1.83
AAGUCCUGUGCUACACAUCGUAUGUACCGAAUCGGGGAAAGGGAAAGGGGAAAGGGAAAGUAUUAUGUUACGCCGUUCGGAUCUGCACUU,0.996
CUCAAGUCCUGUGCUACACAUCGUAUGUACCGAAUCGGGAGGGAAAGGGUGGGAAAGUAUUAUGUUACGCCGUUCGGAUCUGCACUUCCA,1.75
UCCUGUGCUACACAUCGUAUGUACCGAAUCGGGGUGGGGUUUUUGGGGAAAAAAAGGGGAAAGUAUUAUGUUACGCCGUUCGGAUCUGCA,0.934
GUCCUGUGCUACACAUCGUAUGUACCGAAUCGGGGAAAAAGGGAAAAAGGGAAAAAGGAAAGUAUUAUGUUACGCCGUUCGGAUCUGCAC,-1.19
CAAGCCAAGGAAAUGGUGUUAGAGUUAAUUCGUGAUCAAGGCGGUUUCAGAGAAGUUCGGAAUGAGUAUGGGUCAAGAAUAGGAGGAAAU,-2.15
CACAGACAACACGCACCCACACAGACACAGAGGGAAAAAGUUGGGAUGGGGACAGGGUGCACAGCAGGGCGGGGUAGGACCCCAGCCCCU,-0.531

# Set 4
# Cell line: HEK-293T
# Effect on: pseudovirus infection
# Organism: VSV pseudotyped with SARS-CoV-2 spike
# Tested at: 10 µM
# Time: 16 h
# Reference: vehicle-treated
Compound,GFP-positive cells
O=C(O)C[C@H](O)C[C@H](O)/C=C/c1c(C2CC2)nc2ccccc2c1-c1ccc(F)cc1,81.9%
C[Se]CC[C@H](N)C(=O)O,78.6%
O=P(O)(O)C(O)(Cn1ccnc1)P(=O)(O)O,77.4%
CC(=O)OC(C)C[N+](C)(C)C (stereo not drawn),110%
CC(=O)OCC(=O)[C@@]1(OC(C)=O)[C@@H](C)C[C@H]2[C@@H]3C[C@H](F)C4=CC(=O)C=C[C@]4(C)[C@@]3(F)[C@@H](O)C[C@@]21C,89.5%

# Set 5
# Target: Replicase polyprotein 1ab, nsp13 helicase (rep, Severe acute respiratory syndrome coronavirus 2, UniProt P0DTD1)
# Mode: inhibitor
# Tested at: 20 µM
Structure (SMILES),inhibition
C=CCc1ccc(O)c(-c2ccc(O)c(CC=C)c2)c1,2.92%
C[C@@H](N)c1ccc(C(=O)Nc2ccnc3[nH]ccc23)cc1,7.7%
CCOCCn1c(N2CCCN(C)CC2)nc2ccccc21,-1.7%
CC(C)n1nc(C#Cc2ccccc2)c2c(N)ncnc21,100%
C=C1C[C@@]2(O)O[C@@]3(C[C@H]2C(C)C)[C@@H](C)CC[C@@H]13,5.41%
Cc1cc(NC(=O)C(c2ccccc2)N2CCCc3ccccc32)no1 (stereo not drawn),0.94%
Cc1[nH]c(/C=C2\C(=O)Nc3ccc(F)cc32)c(C)c1C(=O)NCCN1CCCC1,16.1%
CN1C(C(=O)Nc2ccccn2)=C(O)c2ccccc2S1(=O)=O,5.67%
CCCCCCOc1nsnc1C1=CCCN(C)C1,7.07%
CCOc1cc2ncc(C#N)c(Nc3ccc(OCc4cccc(F)c4)c(Cl)c3)c2cc1NC(=O)/C=C/CN(C)C,8.47%
O=C(O)c1ccccc1-c1ccc(C(F)(F)F)cc1,2.5%
C[C@@]1(CO)[C@H](O)CC[C@@]2(C)[C@H]1CC[C@H]1C[C@@H]3C[C@@]12CC[C@]3(O)CO,0.47%
CCc1cccc2c3c([nH]c12)C(CC)(CC(=O)O)OCC3 (stereo not drawn),-0.9%
C=CC[C@]1(O)CC[C@H]2[C@@H]3CCC4=CCCC[C@@H]4[C@H]3CC[C@@]21C,2.08%
OC[C@@H](O)[C@H]1O[C@@H]2O[C@H](C(Cl)(Cl)Cl)O[C@@H]2[C@H]1O,8.69%
Cc1nc(NS(=O)(=O)c2ccc(N)cc2)oc1C,1.11%
COc1ccc(S(=O)(=O)N2CCCN(S(=O)(=O)c3ccc(OC)c(OC)c3)CC2)cc1OC,2.05%
Cc1ccc(C[N+](C)(C)C)o1,3.38%
Oc1cccc(-c2c3nc(c(-c4cccc(O)c4)c4ccc([nH]4)c(-c4cccc(O)c4)c4nc(c(-c5cccc(O)c5)c5ccc2[nH]5)CC4)C=C3)c1,29.9%
Cn1cc(-c2ccc3c(c2)CCN3C(=O)Cc2cccc(C(F)(F)F)c2)c2c(N)ncnc21,4.54%
O=C(CC12CC3CC(CC(C3)C1)C2)Nc1cccc2nc(NCCNCCO)ccc12,11.1%
COc1cc2c(cc1Cc1cccc(Cl)c1F)c(=O)c(C(=O)O)cn2[C@H](CO)C(C)C,3.16%
C/C(=N\NC(=S)N1CCC1)c1ccccn1,8.43%
c1nc2c(NC3CCCCC3)nc(Nc3ccc(N4CCOCC4)cc3)nc2[nH]1,10.6%
CCCC[C@H](NC(C)=O)C(=O)N[C@H]1CC(=O)NCCCC[C@@H](C(=O)O)NC(=O)[C@H](Cc2c[nH]c3ccccc23)NC(=O)[C@H](CCCNC(=N)N)NC(=O)[C@@H](Cc2ccccc2)NC(=O)[C@H](Cc2c[nH]cn2)NC1=O,4.2%
